Assay results of several laboratories.
Numbered parts are unrelated; each lists some results of a single study.

Series 1
Target: Interferon regulatory factor 5, full length, phosphomimetic (IRF5, Homo sapiens, UniProt Q13568-2, residues 1-514, S451D/S453D/S456D/S462D)
Technique: protein-binding microarray
Form: double-stranded DNA, one strand shown
Medium: in vitro
Concentration: 940 nM top
Setting: 60-bp whole probe
Added: salmon DNA 0.4 mg/ml
Baseline: random background probes
Reading: higher = stronger binding
Shared flanks, not repeated: GCCTAGCAC … GTCTTGATTCGCTTGACGCTGCTG
| Oligonucleotide | fitted relative affinity [z-score] |
| --- | --- |
| TTAGGCCTGGGACTGGGTTAGTGCTAG | -0.748 |
| TTAGGTACCGACACTGGGTTAGTGCTA | -0.0426 |
| GAAGGTCTCCTTATCCTGACGTGCTAG | 0.186 |
| GACGGTTTCGGTACCGGGACGTGCTAG | 13.8 |
| TCAATTTTCTCTTATTCACTGTGCTAG | 1.81 |
| TTAGATTTCAGTATGGATTAGTGCTAG | 0.429 |
| TCATATCTCTGTTTTTGACTGTGCTAG | 0.753 |
| GACGATTTCAGTTTCGGGACGTGCTAG | 5.56 |
| GACGGACTGGCGTATCGGGACGTGCTA | -0.341 |
| TTAGGTATCGCACTGGGTTAGTGCTAG | 2.17 |
| TCACCATCCTGTATGGAACTGTGCTAG | -0.171 |
| TTAGGACTGCTACTGCTTAAGTGCTAG | -0.344 |
| TTAGGTATTGGACTGGGTTAGTGCTAG | -0.0322 |
| TTAGATATCGGGTATCGCTTAGTGCTA | 1.44 |
| TCATCTTTCCCTGCCCCACTGTGCTAG | 1.47 |
| GACGGACTGGGTCACGGGACGTGCTAG | -0.785 |
| GACGGTATCGGTCTCGGGGCGTGCTAG | 8.35 |
| CTCGCCTGGGGATGCTAACAGTGCTAG | -0.333 |
| GACGAACTGGGGGTTCGAGACGTGCTA | 0.298 |
| CTTCTCCTCCAGGTTCTCTGAGTGCTA | 0.0337 |
| TCTTTTTTTTCTTTAAAAGTGTGCTAG | 1.07 |
| GACGATATCCGGTATCGAGACGTGCTA | 1.68 |
| GACGATTCCAGTTTCGAGATGTGCTAG | 4.39 |
| AGAGGCGGGAGGGGGCGGGGGTGCTAG | 3.52 |
| TCAGGTCTCGGTTTCGGTTAGTGCTAG | 10.6 |

Series 2
Target: RNA binding protein fox-1 homolog 2, RRM domain, GST-SBP tag (RBFOX2, Homo sapiens, UniProt O43251-10, residues 100-194)
Technique: RNA Bind-n-Seq
Form: RNA
Medium: in vitro
Concentration: 365 nM
Setting: natural RNA segment, single round, ends assumed
Baseline: no-protein control
Reading: higher = stronger binding
Residues (chain): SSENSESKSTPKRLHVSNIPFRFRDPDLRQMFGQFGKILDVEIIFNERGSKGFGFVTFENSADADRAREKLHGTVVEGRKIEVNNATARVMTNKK
| Oligonucleotide | RBNS enrichment (R) |
| --- | --- |
| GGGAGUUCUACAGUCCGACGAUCGACCACGCUGAGCACUGGGCUCAGCCUCCCCUGUGGGCAGUGGGCGAACCCCACUUGGCAUGUGCCGAGCACACAGUUCCUGUGGUAGACUUUUCAGAGAACCCUUCUGUUGGAAUUCUCGGGUGCCAA | 0.492 |
| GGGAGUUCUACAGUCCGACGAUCUUUAUGAGUAGACAGUGUUAAUUUGAUUUUCUACAGGAAUUAUGUAACUUAUUCUUUAGGUUUAAAAAGAAUGCUCAAAGGCUAUACAGAGAAGCCCUGUAUCAAAAACCUGGAAUUCUCGGGUGCCAA | 0.725 |
| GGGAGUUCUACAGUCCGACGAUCUUAAGACACAAUAUUGUAAUCCCUACUCUAGGCACUUGCCUUUAAACUAUGUUUUUCAGCCCUUCAGAAGGGUUCUACUACUGUCCUAUACAAUCAAGUAACUGAAAUUCUGGAAUUCUCGGGUGCCAA | 0.273 |
| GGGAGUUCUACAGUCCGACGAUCUCCUAUUGAACCAUGUUUGUGGCUAUUAAAACUCUUUUAACAGUCUGGGCUGGGUCCGGUGGCUCACGCCUGUAAUCCCAGCAAUUUGGGAGUCCGAGGCGGGCGGAUCAUGGAAUUCUCGGGUGCCAA | 3.53 |
| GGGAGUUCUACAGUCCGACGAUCGUUUUCUUUUGUAGGUAUAAAUAAAUACUUGACAAUAAAGGUGUGAAUUUUUUAUUACAUUAAAACUAAAAAGAGUUUAAGUGUACUCUUAAUGUUUUCCUCCAAGCAGUUGGAAUUCUCGGGUGCCAA | 0.468 |
| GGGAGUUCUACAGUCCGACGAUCUAAUAGGACAUCAUAUGGUAAUAGACUGGUUUGACUAUAUUGUUAGCUGCCACAGUAAGCAGGUCAUUGUAUAGGUAAAUGCCUGCACCCAUAAUUUUCUAGUAAUAGCCUGGAAUUCUCGGGUGCCAA | 0.471 |
| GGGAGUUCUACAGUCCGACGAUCCUUCACUACUUCUAUGGUAGGGUUGUCUGAAAUUCCCUUUCAGGCUGUGGGUACUGGUCUUGGGUUCUAGUCAUAAGGGGUUCCUUAUAAGGAGCAGGCGGAGGGGAGUAUGGAAUUCUCGGGUGCCAA | 0.458 |
| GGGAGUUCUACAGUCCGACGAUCUCCCUGUGGAAUUGCCGAGAAAUCUAGCACCUUGCAUGCUGGAUCUGGGCUGCGGGGAGGCUCUUUUUCUCCCUGGCCUCCAGUGCCCACCAGGAGGAUCUGCGCACGGUUGGAAUUCUCGGGUGCCAA | 3.25 |
| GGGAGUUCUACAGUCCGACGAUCUUGUCAUGAUUGCAGACUACAGAUCUGCUUUUUGAAAUGAAAUUUAAACAUUAAAAAUGGAACUGUGUUCUUAGACUCUUUACUGAAGGUGAAACCGUAGUGAAAGCUCCUGGAAUUCUCGGGUGCCAA | 0.437 |
| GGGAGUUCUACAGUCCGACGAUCUCUUGGCAGAACUUUCUAAAGCUACUGCUUUCAAUAGAUUCCAGCCGCAUAUUCCCAUGGGCAUAUUCCCAUGCUUUCUCAAAUAGACUACUGUGAUAAAAAUGAACUCAUGGAAUUCUCGGGUGCCAA | 0.314 |
| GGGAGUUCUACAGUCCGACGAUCAACUGGAAACACUUGAAAGGGGACCCCAGGGCCAGCUGUUUCAGGGGUUUCCUGGACCACCCACUGCUUCUCCCCAACCCUGAUGCGCUGACAUUCCCUUAGCACCAGCUUGGAAUUCUCGGGUGCCAA | 0.292 |
| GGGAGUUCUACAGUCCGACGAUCAUGACCCCUUUGGGGAUCAAACUACGCUUUCACAGGGGUCACCAAGGACCAUUGGAAAACACAGAUUAUUUUAACGUUAUAAAAUUCACAUCAGGAGCAAAAUCACAGAUUGGAAUUCUCGGGUGCCAA | 0.421 |

Series 3
Target: Histone acetyltransferase KAT6A, both winged helices, GST fusion (KAT6A, Homo sapiens, UniProt Q92794, residues 1-181)
Technique: protein binding microarray
Form: double-stranded DNA, one strand shown
Medium: in vitro
Concentration: not given
Setting: 8-mer, flanks averaged, mean of 2 arrays, mostly near background
Baseline: not given
Reading: higher = stronger binding
Target sequence (chain): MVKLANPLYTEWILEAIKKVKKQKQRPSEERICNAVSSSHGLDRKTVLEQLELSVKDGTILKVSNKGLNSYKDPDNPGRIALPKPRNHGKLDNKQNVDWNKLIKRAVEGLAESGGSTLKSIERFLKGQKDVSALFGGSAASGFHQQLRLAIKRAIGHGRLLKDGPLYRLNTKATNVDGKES
| Oligonucleotide | E-score |
| --- | --- |
| GGTCGTCA | 0.0523 |
| AACAGTTC | 0.117 |
| ACGAGTCC | 0.0111 |
| AGCAAAAC | -0.0679 |
| ACCTACTA | -0.0339 |
| CTTTAAAA | -0.0889 |
| ATCCTAAC | 0.0253 |
| AGATGAAA | -0.0392 |
| CGAATACC | -0.0521 |
| AAGAGATA | -0.163 |
| GCGAGCAA | 0.00173 |
| CGCCGATC | 0.271 |
| AGAGGATG | -0.282 |
| GGAACGCC | 0.134 |
| AAGTCCTG | -0.271 |
| GTAATCTA | -0.0827 |
| CGGGAAAA | 0.174 |
| CCAATGTC | -0.0358 |
| AACGGGCT | 0.156 |
| AATGTAAT | -0.0481 |
| AGTTGCAA | -0.0207 |
| CCTTCATA | -0.0551 |
| CCTGTCCA | -0.102 |

Series 4
Target: RING finger protein unkempt homolog, zinc fingers 1-6, GST-SBP tag (UNK, Homo sapiens, UniProt Q9C0B0, residues 30-357)
Sequence of UniProt Q9C0B0 (30-357, looked up): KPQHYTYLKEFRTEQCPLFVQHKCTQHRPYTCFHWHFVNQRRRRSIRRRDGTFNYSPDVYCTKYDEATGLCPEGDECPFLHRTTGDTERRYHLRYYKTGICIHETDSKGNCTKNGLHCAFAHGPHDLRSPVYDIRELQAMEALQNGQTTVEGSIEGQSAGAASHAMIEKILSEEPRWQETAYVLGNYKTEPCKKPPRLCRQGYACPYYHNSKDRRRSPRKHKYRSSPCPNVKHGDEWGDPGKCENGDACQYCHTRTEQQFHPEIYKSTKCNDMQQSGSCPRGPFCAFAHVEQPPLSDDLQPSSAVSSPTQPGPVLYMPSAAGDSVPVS
Technique: RNA Bind-n-Seq
Form: RNA
Medium: in vitro
Concentration: not given
Setting: RNA with constant flanks, human-mouse chimeric sites, ends assumed
Baseline: input RNA pool
Reading: higher = stronger binding
| Oligonucleotide | bound/input enrichment [ratio] |
| --- | --- |
| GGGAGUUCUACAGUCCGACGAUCGGAAGUACAAUGAUGGAGAUUGAUGGUGACAAAGGCAAGCAGGGCGGGCCCACCUACUACAUAGAUACCAAUGCCCUCCGCGUGCCCAGGGAGAACAUGGAGGCCAUUUCACCUCUAAAGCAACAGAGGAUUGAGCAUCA | 0.351 |
| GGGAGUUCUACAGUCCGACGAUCUUAAACACCAAGCUGAUGGACUCUGAUGGCCUCCAUCUCUCAGGCACGUGUGCCUUCUCUUAGUUAUUGUUUUCGGGAUGUUAUGAAUCUCAGUACUGUGGUUUGAAAGCACCAGCUUUGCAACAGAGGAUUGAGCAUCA | 4.61 |
| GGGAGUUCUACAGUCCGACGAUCGACUUUGGGACUGGUCCUCGCAACGCAGCCUUCUAUAGCCCUCAUGGACAUAUAUUAGUAUUAGCUGGAUUUGGAAAUCUUCGAGGACAAAUGGAAGUAUGGGAUGUUAAAAACUACAAGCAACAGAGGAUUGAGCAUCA | 0.649 |
| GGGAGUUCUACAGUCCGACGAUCUCCUUGGACCCCAGUCAUAUAGGUGACCUGCAAAAAGCAGACACCAGUAGUCAAGGUGCUUUAGUGUUUCUCUCAAAGGACUACGAGAUAGAAAGUCAAAAUCCCCUGGCCUCUCCUACGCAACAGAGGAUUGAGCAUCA | 1.27 |
| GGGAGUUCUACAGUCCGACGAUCUCCCAAAUCCAGCAGCUAGAAGGAGCCUUGAGACAAAGCCUGGAAAUGCAGGGAGGGCGAUAACAUUGUACAUUGGUUUACAUUUUUUCCCCCUGUGGAUUUUUCUAGAGGUCAUAGUGCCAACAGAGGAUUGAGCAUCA | 0.391 |
| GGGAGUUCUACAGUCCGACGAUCCGCUGGCCCAAGCUGAUGUAAAUGUUUGGCCUCCAUCUCUCAGGCACGUGUGCCUUCUCUUAGUCCCUGUUUUCGGGUCACAAAGCUUCUCAGUACUGUGGUUUGAAAGCACCAGCUUUGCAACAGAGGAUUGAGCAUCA | 0.159 |
| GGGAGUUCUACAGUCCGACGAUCGCAGGAUCUUCUAAGUACCAGUGGGGCAUUAUGAAAUCCCUUGGCCUCUCUGAUGACGACAUAGUGAAGUUUUCUGAAGCAGAGCACUGGCUUGAUUAUUUCCCACCACUGGCCGUUCAGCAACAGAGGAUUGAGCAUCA | 0.146 |
| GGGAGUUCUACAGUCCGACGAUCAAAUCGUGUGUGUCCAAUAUUGAAAGUGCUUUAUCUACACUCCAAUAUGUAAGCAGUAUAGUAGUUUCUUUAGAGAAUAGGUCAGCCAUUGUAAAGUACAAUGCAAGCUUAGUCACUCCACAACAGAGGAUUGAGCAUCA | 11.8 |
| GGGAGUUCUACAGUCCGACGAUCCUGGCACUGUAUCAGAUAGAUUACUUUUUUAAUGUAGAUGUAAUUUUAAAAAUGAAUGGCUACUUUACACGUUUAACUAGGGUUUUACUAUAUAUGUGUACAUAUGUAUAUAUAUAUAUACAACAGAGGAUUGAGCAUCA | 5.34 |
| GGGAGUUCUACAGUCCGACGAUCUUUCUACUGCAGCAAACGAUGCUAAGAGUGAAGGAUCCUAAGAAGUCCCUGGAUUUUUAUACGAGGGUUCUUGGACUGACCCUCCUGCAGAAGCUUGAUUUUCCCAUUAUGAAGUUCUCGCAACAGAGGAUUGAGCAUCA | 0.188 |
| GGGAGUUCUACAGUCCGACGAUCGCCACCAAUUCCAGCCAACAUGACUCUUGCUGCCUACAAAGAGAAGAUGAAGGAGCUCCCGCUGGUGUCCUUGUUCUGCUCCUGCUUCCUGGCCGAUCCCCUGAAUAAGUCGUCCUACAACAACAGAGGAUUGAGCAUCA | 0.343 |

Repeated from above (series 3):
| Oligonucleotide | E-score |
| --- | --- |
| ACCTACTA | -0.0339 |
| AATGTAAT | -0.0481 |
| GGAACGCC | 0.134 |
| CCAATGTC | -0.0358 |
| AGCAAAAC | -0.0679 |
